Published values from different studies.
Each line is one published result; not all experiments were run side by side.
gbp: gbp (Glycine max, UniProt Q8LKV1)
T1: TnsC/TnsD A225V (Escherichia coli); chain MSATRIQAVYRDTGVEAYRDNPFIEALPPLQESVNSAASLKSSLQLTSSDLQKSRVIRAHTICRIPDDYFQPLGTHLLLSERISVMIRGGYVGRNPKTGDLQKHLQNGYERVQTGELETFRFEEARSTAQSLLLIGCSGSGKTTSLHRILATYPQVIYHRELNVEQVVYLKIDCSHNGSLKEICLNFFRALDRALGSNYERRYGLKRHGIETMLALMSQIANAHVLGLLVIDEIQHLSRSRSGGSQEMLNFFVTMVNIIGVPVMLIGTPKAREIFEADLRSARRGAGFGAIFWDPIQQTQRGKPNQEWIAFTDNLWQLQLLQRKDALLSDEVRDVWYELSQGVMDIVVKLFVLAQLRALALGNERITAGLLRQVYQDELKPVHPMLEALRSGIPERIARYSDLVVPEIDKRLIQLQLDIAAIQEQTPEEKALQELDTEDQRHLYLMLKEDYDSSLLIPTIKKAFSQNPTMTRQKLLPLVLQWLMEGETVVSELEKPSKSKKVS; chain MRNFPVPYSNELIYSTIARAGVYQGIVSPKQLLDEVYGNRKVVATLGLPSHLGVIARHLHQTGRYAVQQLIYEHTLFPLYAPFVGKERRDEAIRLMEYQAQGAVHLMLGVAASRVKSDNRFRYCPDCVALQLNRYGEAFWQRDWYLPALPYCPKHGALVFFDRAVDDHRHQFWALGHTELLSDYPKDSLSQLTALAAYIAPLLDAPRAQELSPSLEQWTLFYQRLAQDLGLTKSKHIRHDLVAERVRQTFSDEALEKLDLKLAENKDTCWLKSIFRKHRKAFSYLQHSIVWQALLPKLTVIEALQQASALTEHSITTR
T2: xseA/xseB 1-456;1-80 H238A (Escherichia coli); chain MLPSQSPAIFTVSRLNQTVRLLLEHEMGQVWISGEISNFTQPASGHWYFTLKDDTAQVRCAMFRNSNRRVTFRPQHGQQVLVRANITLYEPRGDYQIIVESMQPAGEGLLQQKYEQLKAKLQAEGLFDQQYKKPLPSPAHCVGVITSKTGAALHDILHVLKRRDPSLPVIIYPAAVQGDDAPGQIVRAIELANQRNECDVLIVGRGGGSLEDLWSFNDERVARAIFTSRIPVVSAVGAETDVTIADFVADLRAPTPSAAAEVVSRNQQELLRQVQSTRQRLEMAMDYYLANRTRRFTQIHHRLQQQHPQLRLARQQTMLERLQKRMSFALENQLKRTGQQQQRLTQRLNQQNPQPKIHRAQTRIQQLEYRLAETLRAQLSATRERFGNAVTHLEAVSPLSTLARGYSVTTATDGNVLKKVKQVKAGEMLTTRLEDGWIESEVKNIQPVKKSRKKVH; chain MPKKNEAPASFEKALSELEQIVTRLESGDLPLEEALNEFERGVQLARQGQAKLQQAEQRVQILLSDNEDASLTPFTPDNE
T3: Yku70/Yku80 (Saccharomyces cerevisiae); chain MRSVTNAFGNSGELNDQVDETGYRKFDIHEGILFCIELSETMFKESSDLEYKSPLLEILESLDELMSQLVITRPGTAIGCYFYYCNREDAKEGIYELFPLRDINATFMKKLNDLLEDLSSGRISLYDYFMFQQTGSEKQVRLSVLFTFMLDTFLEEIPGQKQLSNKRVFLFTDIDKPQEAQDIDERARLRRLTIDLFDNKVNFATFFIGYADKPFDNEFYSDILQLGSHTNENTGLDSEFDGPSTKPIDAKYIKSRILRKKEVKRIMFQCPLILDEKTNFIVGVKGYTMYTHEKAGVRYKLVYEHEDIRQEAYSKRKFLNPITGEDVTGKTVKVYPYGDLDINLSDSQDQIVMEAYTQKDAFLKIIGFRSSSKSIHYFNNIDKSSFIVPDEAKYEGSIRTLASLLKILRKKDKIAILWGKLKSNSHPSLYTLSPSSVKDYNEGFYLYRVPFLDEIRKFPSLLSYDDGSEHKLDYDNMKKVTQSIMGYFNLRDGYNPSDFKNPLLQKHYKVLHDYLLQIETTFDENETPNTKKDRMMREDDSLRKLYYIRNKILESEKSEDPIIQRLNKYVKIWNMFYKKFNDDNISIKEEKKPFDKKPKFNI; chain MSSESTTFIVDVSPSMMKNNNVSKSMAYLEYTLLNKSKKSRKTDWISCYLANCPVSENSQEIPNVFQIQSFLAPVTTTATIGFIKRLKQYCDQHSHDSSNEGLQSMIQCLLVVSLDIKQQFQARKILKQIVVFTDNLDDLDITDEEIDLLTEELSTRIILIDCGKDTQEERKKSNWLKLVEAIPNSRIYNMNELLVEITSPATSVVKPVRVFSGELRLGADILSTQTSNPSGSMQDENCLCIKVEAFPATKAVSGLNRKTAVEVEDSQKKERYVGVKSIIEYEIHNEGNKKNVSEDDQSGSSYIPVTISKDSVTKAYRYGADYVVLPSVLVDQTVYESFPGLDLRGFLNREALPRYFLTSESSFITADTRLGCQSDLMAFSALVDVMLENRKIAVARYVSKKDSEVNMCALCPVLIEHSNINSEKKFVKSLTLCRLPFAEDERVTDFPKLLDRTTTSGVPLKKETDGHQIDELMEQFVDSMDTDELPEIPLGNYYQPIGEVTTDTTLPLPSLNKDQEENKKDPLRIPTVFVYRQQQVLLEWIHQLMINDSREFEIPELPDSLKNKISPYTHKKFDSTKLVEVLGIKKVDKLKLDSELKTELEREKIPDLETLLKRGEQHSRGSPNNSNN
Sequence of UniProt Q6R0H1 (whole entry, looked up): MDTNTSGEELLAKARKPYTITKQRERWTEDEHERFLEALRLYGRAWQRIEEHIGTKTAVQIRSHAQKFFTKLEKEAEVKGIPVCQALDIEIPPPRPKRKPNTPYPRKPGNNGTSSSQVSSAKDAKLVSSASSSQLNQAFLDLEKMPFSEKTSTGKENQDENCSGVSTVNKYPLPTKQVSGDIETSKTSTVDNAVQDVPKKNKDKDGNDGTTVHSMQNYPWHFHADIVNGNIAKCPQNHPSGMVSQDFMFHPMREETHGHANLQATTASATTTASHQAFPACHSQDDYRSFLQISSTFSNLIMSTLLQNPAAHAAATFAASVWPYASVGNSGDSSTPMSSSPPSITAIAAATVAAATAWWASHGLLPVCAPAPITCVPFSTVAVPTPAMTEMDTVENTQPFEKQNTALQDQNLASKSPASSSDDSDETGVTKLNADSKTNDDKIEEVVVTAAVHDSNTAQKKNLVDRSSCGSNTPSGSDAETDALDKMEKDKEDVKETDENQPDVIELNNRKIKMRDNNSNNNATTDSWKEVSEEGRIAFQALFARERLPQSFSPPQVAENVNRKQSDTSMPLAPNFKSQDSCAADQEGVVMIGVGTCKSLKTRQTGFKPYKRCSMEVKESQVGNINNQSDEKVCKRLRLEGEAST
Sequence of UniProt O75469 (whole entry, looked up): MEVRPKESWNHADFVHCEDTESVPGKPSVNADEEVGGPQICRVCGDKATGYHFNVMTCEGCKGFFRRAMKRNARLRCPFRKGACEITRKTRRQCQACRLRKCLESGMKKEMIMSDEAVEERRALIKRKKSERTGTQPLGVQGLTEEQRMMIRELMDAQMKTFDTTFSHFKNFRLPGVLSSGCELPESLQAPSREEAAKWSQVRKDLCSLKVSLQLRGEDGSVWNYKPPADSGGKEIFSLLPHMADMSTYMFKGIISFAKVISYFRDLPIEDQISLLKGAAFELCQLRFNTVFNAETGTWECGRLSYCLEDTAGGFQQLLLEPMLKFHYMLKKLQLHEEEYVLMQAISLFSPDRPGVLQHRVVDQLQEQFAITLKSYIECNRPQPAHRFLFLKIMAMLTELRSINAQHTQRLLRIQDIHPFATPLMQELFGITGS
Sequence of UniProt O00425 (whole entry, looked up): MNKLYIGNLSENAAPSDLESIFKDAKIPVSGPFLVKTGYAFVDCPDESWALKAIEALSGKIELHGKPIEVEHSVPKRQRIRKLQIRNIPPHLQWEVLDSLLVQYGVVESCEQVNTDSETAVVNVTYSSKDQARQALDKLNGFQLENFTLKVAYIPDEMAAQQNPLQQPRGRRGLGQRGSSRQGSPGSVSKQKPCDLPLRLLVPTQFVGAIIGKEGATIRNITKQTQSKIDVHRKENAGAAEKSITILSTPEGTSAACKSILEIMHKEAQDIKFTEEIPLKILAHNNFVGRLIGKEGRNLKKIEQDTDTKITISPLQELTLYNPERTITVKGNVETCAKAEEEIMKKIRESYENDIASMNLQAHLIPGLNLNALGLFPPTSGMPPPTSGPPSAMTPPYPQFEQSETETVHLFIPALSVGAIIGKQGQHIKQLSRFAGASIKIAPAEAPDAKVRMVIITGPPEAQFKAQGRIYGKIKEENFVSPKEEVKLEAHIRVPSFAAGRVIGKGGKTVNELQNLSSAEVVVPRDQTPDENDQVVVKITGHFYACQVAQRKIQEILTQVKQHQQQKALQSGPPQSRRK
Sequence of UniProt Q13YL3 (whole entry, looked up): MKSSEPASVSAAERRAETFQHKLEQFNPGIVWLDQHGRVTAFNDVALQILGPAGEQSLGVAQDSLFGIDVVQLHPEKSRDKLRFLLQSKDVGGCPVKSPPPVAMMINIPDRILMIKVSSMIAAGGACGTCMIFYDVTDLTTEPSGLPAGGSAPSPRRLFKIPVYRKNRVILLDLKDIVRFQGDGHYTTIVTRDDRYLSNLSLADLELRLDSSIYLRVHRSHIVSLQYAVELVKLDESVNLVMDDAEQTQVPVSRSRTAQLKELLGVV
Sequence of UniProt Q8W4L5 (whole entry, looked up): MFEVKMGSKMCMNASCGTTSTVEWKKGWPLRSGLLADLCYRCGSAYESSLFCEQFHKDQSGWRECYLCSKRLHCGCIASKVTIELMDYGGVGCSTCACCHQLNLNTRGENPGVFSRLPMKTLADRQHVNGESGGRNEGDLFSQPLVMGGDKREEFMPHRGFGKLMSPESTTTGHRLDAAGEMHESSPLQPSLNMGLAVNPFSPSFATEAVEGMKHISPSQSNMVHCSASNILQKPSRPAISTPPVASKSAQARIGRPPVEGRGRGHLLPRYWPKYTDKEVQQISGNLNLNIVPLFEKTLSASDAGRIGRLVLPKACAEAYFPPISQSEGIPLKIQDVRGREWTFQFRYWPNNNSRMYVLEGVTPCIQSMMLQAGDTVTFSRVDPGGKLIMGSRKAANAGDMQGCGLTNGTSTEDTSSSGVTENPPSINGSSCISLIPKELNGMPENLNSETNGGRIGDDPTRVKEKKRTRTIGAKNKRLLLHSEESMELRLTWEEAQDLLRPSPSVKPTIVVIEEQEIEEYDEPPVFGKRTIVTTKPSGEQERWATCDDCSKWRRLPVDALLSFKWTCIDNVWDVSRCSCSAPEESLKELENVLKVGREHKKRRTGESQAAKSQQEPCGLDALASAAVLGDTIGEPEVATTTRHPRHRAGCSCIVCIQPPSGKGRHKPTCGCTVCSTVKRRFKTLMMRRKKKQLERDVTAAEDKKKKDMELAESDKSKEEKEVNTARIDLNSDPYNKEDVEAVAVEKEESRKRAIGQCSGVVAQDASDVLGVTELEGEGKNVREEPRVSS
Sequence of UniProt P19338 (whole entry, looked up): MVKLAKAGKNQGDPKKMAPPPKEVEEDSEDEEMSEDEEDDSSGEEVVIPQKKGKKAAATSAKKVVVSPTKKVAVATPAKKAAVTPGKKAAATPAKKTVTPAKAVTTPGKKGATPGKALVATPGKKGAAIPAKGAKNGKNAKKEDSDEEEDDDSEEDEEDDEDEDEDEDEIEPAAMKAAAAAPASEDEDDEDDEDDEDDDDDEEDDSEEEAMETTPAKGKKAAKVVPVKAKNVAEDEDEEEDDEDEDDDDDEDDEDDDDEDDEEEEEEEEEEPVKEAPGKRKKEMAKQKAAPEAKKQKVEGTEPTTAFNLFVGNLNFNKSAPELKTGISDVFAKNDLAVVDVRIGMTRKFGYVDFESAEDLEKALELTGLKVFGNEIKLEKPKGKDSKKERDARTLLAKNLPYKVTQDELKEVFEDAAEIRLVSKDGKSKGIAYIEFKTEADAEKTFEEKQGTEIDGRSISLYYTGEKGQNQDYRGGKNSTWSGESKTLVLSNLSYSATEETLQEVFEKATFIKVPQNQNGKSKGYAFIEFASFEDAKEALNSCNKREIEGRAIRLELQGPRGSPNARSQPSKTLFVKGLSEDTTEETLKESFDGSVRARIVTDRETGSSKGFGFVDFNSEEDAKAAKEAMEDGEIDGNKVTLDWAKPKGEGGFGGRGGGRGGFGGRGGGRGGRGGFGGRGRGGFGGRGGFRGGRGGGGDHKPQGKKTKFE
Sequence of UniProt P25454 (whole entry, unmodified, looked up): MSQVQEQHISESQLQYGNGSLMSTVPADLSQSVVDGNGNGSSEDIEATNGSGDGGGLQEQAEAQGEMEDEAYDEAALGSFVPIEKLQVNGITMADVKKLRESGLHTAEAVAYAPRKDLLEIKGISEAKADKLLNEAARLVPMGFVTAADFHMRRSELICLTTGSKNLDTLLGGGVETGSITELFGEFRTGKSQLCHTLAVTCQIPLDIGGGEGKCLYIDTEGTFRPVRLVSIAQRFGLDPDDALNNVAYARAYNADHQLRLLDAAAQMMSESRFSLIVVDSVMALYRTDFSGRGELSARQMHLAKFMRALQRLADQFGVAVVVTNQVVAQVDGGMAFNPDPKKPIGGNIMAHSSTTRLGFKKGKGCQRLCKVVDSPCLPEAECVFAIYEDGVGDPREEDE
Sequence of UniProt P02788 (whole entry, looked up): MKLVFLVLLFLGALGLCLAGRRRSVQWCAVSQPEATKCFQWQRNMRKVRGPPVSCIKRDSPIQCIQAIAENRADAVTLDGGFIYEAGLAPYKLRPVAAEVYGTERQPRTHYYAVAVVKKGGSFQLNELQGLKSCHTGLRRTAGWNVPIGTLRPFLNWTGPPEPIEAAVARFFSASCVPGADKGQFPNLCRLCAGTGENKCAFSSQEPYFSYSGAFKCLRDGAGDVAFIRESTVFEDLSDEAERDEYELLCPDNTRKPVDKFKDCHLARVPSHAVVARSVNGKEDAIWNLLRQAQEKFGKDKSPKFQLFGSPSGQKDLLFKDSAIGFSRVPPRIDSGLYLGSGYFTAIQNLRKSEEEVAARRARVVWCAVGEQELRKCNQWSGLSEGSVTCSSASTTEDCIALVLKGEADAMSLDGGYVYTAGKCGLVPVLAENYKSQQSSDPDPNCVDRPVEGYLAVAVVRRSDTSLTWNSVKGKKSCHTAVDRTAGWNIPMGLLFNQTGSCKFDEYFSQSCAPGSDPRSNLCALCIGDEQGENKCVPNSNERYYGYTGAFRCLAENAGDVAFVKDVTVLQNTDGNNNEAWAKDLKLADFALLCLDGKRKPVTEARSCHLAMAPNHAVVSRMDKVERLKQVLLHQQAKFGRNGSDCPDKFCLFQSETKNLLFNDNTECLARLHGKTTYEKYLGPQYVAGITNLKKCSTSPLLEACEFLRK
Sequence of UniProt P48432 (whole entry, looked up): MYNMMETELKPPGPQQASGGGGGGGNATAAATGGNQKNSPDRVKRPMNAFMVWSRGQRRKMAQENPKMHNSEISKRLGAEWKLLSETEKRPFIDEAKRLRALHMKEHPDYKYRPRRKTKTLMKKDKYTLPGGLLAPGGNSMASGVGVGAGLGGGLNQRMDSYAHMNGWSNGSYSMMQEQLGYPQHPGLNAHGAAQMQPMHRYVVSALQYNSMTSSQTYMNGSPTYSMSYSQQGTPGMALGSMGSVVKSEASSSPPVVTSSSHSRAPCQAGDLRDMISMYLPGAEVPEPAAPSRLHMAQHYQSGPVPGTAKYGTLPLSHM

CGGCCGGGCGCCCGGCATGGCGGCCTATAAAAGGGC (dsDNA)
binding (Mot1/TBP Mot1 1-1886; TBP 1-255 (Chaetomium thermophilum); cryo-EM structure; double-stranded DNA, one strand shown; added: ADP-BeF3; Mg2+): binds

GTGTGGTTAATATGGTGTGGTTAATATGGTGTGGTTAATATGGTGTGGTTAATATG (dsDNA)
binding (RNJ 604-911 W821A (Arabidopsis thaliana, UniProt Q84W56); EMSA; double-stranded DNA, one strand shown): no binding

CACAATGCAACACACAATAATCACACAGCAACACAATTTTCATTC (dsDNA)
binding (gbp; EMSA; double-stranded DNA, one strand shown): no binding

TTTTTTTTTTTTTTTTTTTTTTTTTTTTTTTTTTTTTTTTTTTTTTTTTTTTTTTTTTTTTTTTTTTTTT (ssDNA)
binding (RAD51 full length assumed Y112E/Y253K (Saccharomyces cerevisiae, UniProt P25454); fluorescence anisotropy; single-stranded DNA; added: ATP): no binding

AUUUAUUUAUUUAUUUAUUUAUUUAUUUAUUUAUUUAUUUA (ssRNA)
binding (NR1I2 (Homo sapiens, UniProt O75469); EMSA; RNA; 200 nM RNA): no binding

CAGCCAACTAAACTA (dsDNA)
binding (T1, TnsC/TnsD A225V (Escherichia coli); EMSA; double-stranded DNA, one strand shown; added: ATP 0.33 mM): binds

CAAAATAAAAAAAAAAATAATCAAAAAAAAAAAAAATTTTCATTC (dsDNA)
binding (gbp; EMSA; double-stranded DNA, one strand shown): no binding

GGUGUAGAUCAGGCCCGUCUGUUUCUCCCCCGGAGCUCGCUCCCUUGGCUUCCCUUAUAUAUUUUAACAUCAGAAACAGACAUUAAACAUCUACUGAUCCAAUUUCGCCGGCGUACGGCCACGAUCGGGAGGGUGGGAAUCUCGGGGGUCUUCCGAUCCUAAUCCAUGAUGAUUACGACCUGAGUCACUAAAGACGAUGGCAUGAUGAUCCGGCGAUGAAAAA (structured RNA)
binding (Reverse transcriptase-like protein 275-1114 D996A (Bombyx mori, UniProt V9H052); competition; folded RNA): binds

TCGATTTTCGCGCAAATT (dsDNA; blunt)
binding (rcoM1 full length assumed (Paraburkholderia xenovorans, UniProt Q13YL3); fluorescence anisotropy; double-stranded DNA, one strand shown; Fe(II)-CO): no binding

GGTTAGGGTTAG (ssDNA; 5'-phosphate)
binding (POT1 1-299 R83E (Homo sapiens, UniProt Q9NUX5); EMSA; single-stranded DNA): binds

ACCAAGCGTGATGCGGAGCCGCCGCCGCCGCCG (dsDNA; blunt)
binding (WT1 zinc finger domain 323-435 (Homo sapiens); EMSA; double-stranded DNA, one strand shown): no binding

CGCGCGCGCGCGCGCG (XNA; LNA self-complementary duplex)
binding (ADAR 133-199 (Homo sapiens, UniProt P55265); EMSA; modified nucleic acid, one strand shown): binds

ACAAGAACAUCAAAGUCGAAGAACCUUCCG (ssRNA)
binding (IGF2BP3 1-579 (Homo sapiens, UniProt O00425); pull-down; RNA): binds

DNA 1 AAGGTGTGTGGGTGTGGTAATTTTTTTTTT / DNA 2 ATTACCACACCCACACACCTT (dsDNA; 3' 9 nt overhang)
binding (RAP1/Yku70/Yku80 (Saccharomyces cerevisiae); EMSA; double-stranded DNA): binds

ACCAAGCTGGATGCGGAGCCGCCGCCGCCGCCG (dsDNA; blunt)
binding (WT1 zinc finger domain 323-435 (Homo sapiens); EMSA; double-stranded DNA, one strand shown): no binding

AGCGAAAUGGGAGGGUUA (ssRNA)
binding (NCL 300-650 (Homo sapiens, UniProt P19338); pull-down competition, competition; RNA): binds

TGCTGCTTTTGTGCTTTTGTGCTT (ssDNA)
binding (AGER 23-342 (Homo sapiens, UniProt Q15109); competition EMSA; single-stranded DNA): binds

CTCAATTCTGTCCTATTTCTTGTGCATGAAACTTCTCCATCTTGTAATCG (dsDNA)
binding (VAL1 289-396 (Arabidopsis thaliana, UniProt Q8W4L5); EMSA; double-stranded DNA, one strand shown): binds

AGCGTGTTTTTTTTTTTTTTTTTTTTTTTTTTTTTTTTTTTTTTTTTTTTTTTTTTTTTTTTTTTTTTTTTTTTAGCGTG (ssDNA)
binding (T2, xseA/xseB 1-456;1-80 H238A (Escherichia coli); competition fluorescence anisotropy; single-stranded DNA): binds

AAGGTGTGTGGGTGTGA (dsDNA)
binding (T3, Yku70/Yku80 (Saccharomyces cerevisiae); EMSA; double-stranded DNA, one strand shown): binds

TGGGTGGGTAGGGTGGGT (G-quadruplex DNA; parallel)
binding (PARP2 full length, 1-570 (Homo sapiens); EMSA; folded DNA): no binding

TCTCCTTTTTGCTTGACACTGACCAAAAAA (dsDNA)
binding (WRKY domain-containing protein 1-253 (Triticum aestivum, UniProt A0A3B5Y6J9); EMSA; double-stranded DNA, one strand shown): binds

UAUUU (ssRNA)
binding (Rc3h1 411-454 (Mus musculus, UniProt Q4VGL6); NMR; RNA): binds

TGCGATTCGTTGTATCCGTAACATTTCCACCGAGCGTTTTGTTTTTCTTCTGTTCCTCTA (dsDNA)
binding (LHY full length assumed (Arabidopsis thaliana, UniProt Q6R0H1); EMSA; double-stranded DNA, one strand shown): no binding

TTTTTTTTTTCGTATGGCACGGGGTTGGTGTTGGGTTGG (ssDNA; 5'-phosphate; G-quadruplex)
binding (LTF 20-710 (Homo sapiens, UniProt P02788); electrolyte-gated transistor sensor; single-stranded DNA): no binding

GTGAATATTGCTTGAAATTTAGTTTGTGTGAAAAAAGCATATTCCAACA (dsDNA)
binding (LHY (Arabidopsis thaliana, UniProt Q6R0H1); EMSA; double-stranded DNA, one strand shown): no binding

GCATATGGCAGCTTGAACAGTGAGCGCAACGCAATTTTGCAGCGA (dsDNA)
binding (lacI full length assumed V52A (Escherichia coli, UniProt P03023); BLI; double-stranded DNA, one strand shown): binds

ATAAGTCACATGATGATATTTGATTTTATTATATTTTTAAAAAAAGTAAAAAATAAAAAGTAGTTTATTTTTAAAAAATAAAATTTAAAATATTTCACAAAATGATTTCCGAA (dsDNA)
binding (CENP-I 1-229 R216D (Thermochaetoides thermophila, UniProt G0SFF7); EMSA; double-stranded DNA, one strand shown): binds

CCACGACAGTTACGTATGAACCTTTG (dsDNA)
binding (HY5/CaM2 1-158; 1-149 (Solanum lycopersicum); EMSA; double-stranded DNA, one strand shown; added: CaCl2 5 mM): binds

CTTCTTTATTTTATTGTCCACGTAAATAAAAATCCATTATCT (dsDNA)
binding (Transcription factor RF2b full length assumed (Ziziphus jujuba, UniProt A0A6P3ZIC3); EMSA; double-stranded DNA, one strand shown): binds

ACCAAGCGGGATGCTGAGCCGCCGCCGCCGCCG (dsDNA; blunt)
binding (WT1 zinc finger domain 323-435 (Homo sapiens); EMSA; double-stranded DNA, one strand shown): no binding

GGCGGCGGCATTGTCCGGCGCGCGG (dsDNA)
binding (Sox2 41-119 (Mus musculus, UniProt P48432); EMSA; double-stranded DNA, one strand shown): binds

Excerpt of the above:
CAGCCAACTAAACTA (dsDNA)
binding (T1, TnsC/TnsD A225V (Escherichia coli); EMSA; double-stranded DNA, one strand shown; added: ATP 0.33 mM): binds

CAAAATAAAAAAAAAAATAATCAAAAAAAAAAAAAATTTTCATTC (dsDNA)
binding (gbp; EMSA; double-stranded DNA, one strand shown): no binding

GGUGUAGAUCAGGCCCGUCUGUUUCUCCCCCGGAGCUCGCUCCCUUGGCUUCCCUUAUAUAUUUUAACAUCAGAAACAGACAUUAAACAUCUACUGAUCCAAUUUCGCCGGCGUACGGCCACGAUCGGGAGGGUGGGAAUCUCGGGGGUCUUCCGAUCCUAAUCCAUGAUGAUUACGACCUGAGUCACUAAAGACGAUGGCAUGAUGAUCCGGCGAUGAAAAA (structured RNA)
binding (Reverse transcriptase-like protein 275-1114 D996A (Bombyx mori, UniProt V9H052); competition; folded RNA): binds

TCGATTTTCGCGCAAATT (dsDNA; blunt)
binding (rcoM1 full length assumed (Paraburkholderia xenovorans, UniProt Q13YL3); fluorescence anisotropy; double-stranded DNA, one strand shown; Fe(II)-CO): no binding

GGTTAGGGTTAG (ssDNA; 5'-phosphate)
binding (POT1 1-299 R83E (Homo sapiens, UniProt Q9NUX5); EMSA; single-stranded DNA): binds
